# Experimental data gathered from unrelated publications.
# Compare with care: the assays were run in different laboratories. ± gives the spread as reported.
Compound,assay,test system,setting,tissue uptake [%ID/g]
CSCC[C@H](NC(=O)[C@H](CC(C)C)NC(=O)[C@H](Cc1c[nH]cn1)NC(=O)CNC(=O)[C@@H](NC(=O)[C@H](C)NC(=O)[C@H](Cc1c[nH]c2ccccc12)NC(=O)[C@H](CCC(N)=O)NC(=O)[C@H](CC(N)=O)NC(=O)CNC(=O)[C@H](Cc1ccc(O)cc1)NC(=O)[C@H](CCCNC(=N)N)NC(=O)[C@H](CCC(N)=O)NC(=O)[C@@H]1CCCN1C(=O)CN1CCN(CC(=O)O)CCN(CC(=O)O)CCN(CC(=O)O)CC1)C(C)C)C(N)=O [indium-111 labelled],,"male Swiss nu/nu mice, PC-3 xenograft, blood","intravenous, 10 pmol, 1 h post injection, 111In or 99mTc labelled",0.4 ± 0.5
N=C(N)NCCC[C@@H]1NC(=O)[C@H](CCCCNC(=O)CC[C@H](NC(=O)[C@H](CCCCNC(=O)c2ccc(NN)nc2)NC(=O)c2ccc(NN)nc2)C(=O)NCCCC[C@@H]2NC(=O)[C@@H](Cc3ccccc3)NC(=O)[C@H](CC(=O)O)NC(=O)CNC(=O)[C@H](CCCNC(=N)N)NC2=O)NC(=O)[C@@H](Cc2ccccc2)NC(=O)[C@H](CC(=O)O)NC(=O)CNC1=O [technetium-99m labelled],,"female athymic nude mice, lungs","intravenous, 0.1 MBq, 1 h, U-87 MG glioma xenograft",2.7 ± 0.04
N=C(N)NCCC[C@H](NC(=O)[C@H](CCCCN)NC(=O)[C@H](CCC(N)=O)NC(=O)CCOCCOCCOCCNC(=O)CN1CCN(CC(=O)O)CCN(CC(=O)O)CCN(CC(=O)O)CC1)C(=O)N[C@@H](CCCCN)C(=O)N[C@@H](CCCNC(=N)N)C(=O)N[C@@H](CCCCN)C(=O)N[C@@H](CCCCN)C(=O)N[C@@H](CO)C(=O)N[C@@H](CCCNC(=N)N)C(=O)N[C@@H](Cc1ccc(O)cc1)C(=O)N[C@@H](CCCCN)C(=O)N[C@@H](CO)C(=O)O [copper-64 labelled],,"male C57BL/6 mice, B16-F10 tumour, pancreas","intravenous, 60 min",0.39 ± 0.02
CCCC[C@H](NC(=O)[C@H](Cc1cccs1)NC(=O)[C@H](Cc1c[nH]cn1)NC(=O)CCNC(=O)[C@@H](NC(=O)[C@H](C)NC(=O)[C@H](Cc1c[nH]c2ccccc12)NC(=O)[C@H](CCC(N)=O)NC(=O)[C@H](Cc1cccs1)NC(=O)CN1CCC(NC(=O)CN(CCN(CCN(CC(=O)O)CC(=O)O)CC(=O)O)CC(=O)O)CC1)C(C)C)C(N)=O [indium-111 labelled],,"male Swiss nu/nu mice, PC-3 tumour, kidney","intravenous, 10 pmol, 1 h",2 ± 0.3
N=C(N)NCCC[C@@H]1NC(=O)[C@H](CCCCNC(=O)CCOCCOCCOCCOCCNC(=O)CN2CCN(CC(=O)O)CCN(CC(=O)O)CCN(CC(=O)O)CC2)NC(=O)[C@@H](Cc2ccccc2)NC(=O)[C@H](CC(=O)O)NC(=O)CNC1=O [indium-111 labelled],,"female athymic nude mice, spleen","intravenous, 3 µCi, 1 h, U-87 MG glioma xenograft",0.83 ± 0.1
N=C(N)NCCC[C@@H]1NC(=O)[C@H](CC(=O)NC23CNCCNCC(N)(CNCCNC2)CNCCNC3)NC(=O)[C@@H](Cc2ccccc2)NC(=O)[C@H](CC(=O)O)NC(=O)CNC1=O [copper-64 labelled],,"male nude tumour-bearing mice, kidney","iv, 10 µCi, 1 h",5.58 ± 1.62
CSCC[C@H](NC(=O)[C@H](CC(C)C)NC(=O)[C@H](Cc1c[nH]cn1)NC(=O)CNC(=O)[C@@H](NC(=O)[C@H](C)NC(=O)[C@H](Cc1c[nH]c2ccccc12)NC(=O)[C@H](CCC(N)=O)NC(=O)CNC(=O)[C@H](CO)NC(=O)CNC(=O)CCCCCCCNC(=O)CCC(=O)Nc1ccc(CNC23CNCCNCC(N)(CNCCNC2)CNCCNC3)cc1)C(C)C)C(N)=O [copper-64 labelled],,"female SCID mice, PC-3 xenograft, bone","intravenous, 0.6 MBq, 24 h",0.498 ± 0.04
CC(C)C[C@H](NC(=O)[C@H](Cc1ccc(O)cc1)NC(=O)[C@@H](CCCNC(=N)N)NC(=O)[C@@H](CO)NC(=O)[C@H](Cc1ccccc1)NC(=O)[C@H](CC1CCCCC1)NC(=O)[C@H](CC(=O)O)NC(=O)CCC(C(=O)O)N1CCCN2CCN(CCCN(CC(=O)O)CC2)CC1)C(=O)N[C@@H](Cc1c[nH]c2ccccc12)C(=O)N[C@@H](CO)C(=O)O (some centres unmarked) [copper-64 labelled],,"female NMRI nude mice, kidney",1 h p.i.,14 ± 1.6
N=C(N)NCCC[C@@H]1NC(=O)[C@H](CCCCNC(=O)CCOCCOCCOCCOCCNC(=O)CC[C@H](NC(=O)CCOCCOCCOCCOCCNC(=O)CC[C@H](NC(=O)CN2CCN(CC(=O)O)CCN(CC(=O)O)CCN(CC(=O)O)CC2)C(=O)NCCOCCOCCOCCOCCC(=O)N[C@@H](CCC(=O)NCCOCCOCCOCCOCCC(=O)NCCCC[C@@H]2NC(=O)[C@@H](Cc3ccccc3)NC(=O)[C@H](CC(=O)O)NC(=O)CNC(=O)[C@H](CCCNC(=N)N)NC2=O)C(=O)NCCOCCOCCOCCOCCC(=O)NCCCC[C@@H]2NC(=O)[C@@H](Cc3ccccc3)NC(=O)[C@H](CC(=O)O)NC(=O)CNC(=O)[C@H](CCCNC(=N)N)NC2=O)C(=O)NCCOCCOCCOCCOCCC(=O)NCCCC[C@@H]2NC(=O)[C@@H](Cc3ccccc3)NC(=O)[C@H](CC(=O)O)NC(=O)CNC(=O)[C@H](CCCNC(=N)N)NC2=O)NC(=O)[C@@H](Cc2ccccc2)NC(=O)[C@H](CC(=O)O)NC(=O)CNC1=O [indium-111 labelled],,"female athymic nude mice, eyes","intravenous, 3 µCi, 0.5 h, U-87 MG glioma xenograft",2.78 ± 2.01
CSCC[C@H](NC(=O)[C@H](CC(=O)O)NC(=O)[C@H](CO)NC(=O)[C@H](Cc1c[nH]cn1)NC(=O)[C@H](Cc1c[nH]c2ccccc12)NC(=O)CN1CCN(CC(=O)O)CCN(CC(=O)O)CCN(CC(=O)O)CC1)C(=O)N[C@@H](CCC(=O)O)C(=O)N[C@@H](Cc1c[nH]c2ccccc12)C(=O)N[C@@H](Cc1c[nH]c2ccccc12)C(=O)N[C@@H](Cc1ccc(O)cc1)C(=O)N[C@@H](CC(C)C)C(=O)N[C@@H](CC(C)C)C(=O)NCC(=O)N[C@@H](CCCCNC(=O)COCCOCCNC(=O)CCN1C(=O)C=CC1=O)C(=O)O [copper-64 labelled],gamma counting,"nude mice bearing HT-29 tumours, HT-29 tumour","intravenous, 0.74 MBq (0.02 nmol), 4 h",4.69
N=C(N)NCCC[C@@H]1NC(=O)[C@H](CCCCNC(=O)CC[C@H](NC(=O)CCOCCOCCOCCOCCNC(=O)CN2CCN(CC(=O)O)CCN(CC(=O)O)CCN(CC(=O)O)CC2)C(=O)NCCCC[C@@H]2NC(=O)[C@@H](Cc3ccccc3)NC(=O)[C@H](CC(=O)O)NC(=O)CNC(=O)[C@H](CCCNC(=N)N)NC2=O)NC(=O)[C@@H](Cc2ccccc2)NC(=O)[C@H](CC(=O)O)NC(=O)CNC1=O [indium-111 labelled],,"female athymic nude mice, heart","intravenous, 3 µCi, 72 h, U-87 MG glioma xenograft",0.14 ± 0.02
N=C(N)NCCC[C@@H]1NC(=O)[C@H](CCCCNC(=O)CCOCCOCCOCCOCCNC(=O)CC[C@H](NC(=O)CCOCCOCCOCCOCCNC(=O)[C@H](CCCCNC(=O)c2ccc(NN)nc2)NC(=O)c2ccc(NN)nc2)C(=O)NCCOCCOCCOCCOCCC(=O)NCCCC[C@@H]2NC(=O)[C@@H](Cc3ccccc3)NC(=O)[C@H](CC(=O)O)NC(=O)CNC(=O)[C@H](CCCNC(=N)N)NC2=O)NC(=O)[C@@H](Cc2ccccc2)NC(=O)[C@H](CC(=O)O)NC(=O)CNC1=O [technetium-99m labelled],,"female athymic nude mice, blood","intravenous, 0.1 MBq, 1 h, U-87 MG glioma xenograft",0.69 ± 0.16
N=C(N)NCCC[C@@H]1NC(=O)[C@H](CCCCNC(=O)CCOCCOCCOCCOCCNC(=O)CC[C@H](NC(=O)CCOCCOCCOCCOCCNC(=O)c2ccc(NN)nc2)C(=O)NCCOCCOCCOCCOCCC(=O)NCCCC[C@@H]2NC(=O)[C@@H](Cc3ccccc3)NC(=O)[C@H](CC(=O)O)NC(=O)CNC(=O)[C@H](CCCNC(=N)N)NC2=O)NC(=O)[C@@H](Cc2ccccc2)NC(=O)[C@H](CC(=O)O)NC(=O)CNC1=O [technetium-99m labelled],,"female athymic nude mice, U-87 MG glioma xenograft, kidney","intravenous, 2.5 µCi, 60 min",8.22 ± 1.99
N=C(N)NCCC[C@@H]1NC(=O)[C@H](CCCCNC(=O)CNC(=O)CNC(=O)CNC(=O)CC[C@H](NC(=O)CCOCCOCCOCCOCCNC(=O)CC[C@H](NC(=O)CN2CCN(CC(=O)O)CCN(CC(=O)O)CCN(CC(=O)O)CC2)C(=O)NCCOCCOCCOCCOCCC(=O)N[C@@H](CCC(=O)NCC(=O)NCC(=O)NCC(=O)NCCCC[C@@H]2NC(=O)[C@@H](Cc3ccccc3)NC(=O)[C@H](CC(=O)O)NC(=O)CNC(=O)[C@H](CCCNC(=N)N)NC2=O)C(=O)NCC(=O)NCC(=O)NCC(=O)NCCCC[C@@H]2NC(=O)[C@@H](Cc3ccccc3)NC(=O)[C@H](CC(=O)O)NC(=O)CNC(=O)[C@H](CCCNC(=N)N)NC2=O)C(=O)NCC(=O)NCC(=O)NCC(=O)NCCCC[C@@H]2NC(=O)[C@@H](Cc3ccccc3)NC(=O)[C@H](CC(=O)O)NC(=O)CNC(=O)[C@H](CCCNC(=N)N)NC2=O)NC(=O)[C@@H](Cc2ccccc2)NC(=O)[C@H](CC(=O)O)NC(=O)CNC1=O [indium-111 labelled],,"female athymic nude mice, blood","intravenous, 3 µCi, 0.5 h, U-87 MG glioma xenograft",0.84 ± 0.32

# Some of these lines once more:
Compound,assay,test system,setting,tissue uptake [%ID/g]
N=C(N)NCCC[C@@H]1NC(=O)[C@H](CC(=O)NC23CNCCNCC(N)(CNCCNC2)CNCCNC3)NC(=O)[C@@H](Cc2ccccc2)NC(=O)[C@H](CC(=O)O)NC(=O)CNC1=O [copper-64 labelled],,"male nude tumour-bearing mice, kidney","iv, 10 µCi, 1 h",5.58 ± 1.62
CSCC[C@H](NC(=O)[C@H](CC(=O)O)NC(=O)[C@H](CO)NC(=O)[C@H](Cc1c[nH]cn1)NC(=O)[C@H](Cc1c[nH]c2ccccc12)NC(=O)CN1CCN(CC(=O)O)CCN(CC(=O)O)CCN(CC(=O)O)CC1)C(=O)N[C@@H](CCC(=O)O)C(=O)N[C@@H](Cc1c[nH]c2ccccc12)C(=O)N[C@@H](Cc1c[nH]c2ccccc12)C(=O)N[C@@H](Cc1ccc(O)cc1)C(=O)N[C@@H](CC(C)C)C(=O)N[C@@H](CC(C)C)C(=O)NCC(=O)N[C@@H](CCCCNC(=O)COCCOCCNC(=O)CCN1C(=O)C=CC1=O)C(=O)O [copper-64 labelled],gamma counting,"nude mice bearing HT-29 tumours, HT-29 tumour","intravenous, 0.74 MBq (0.02 nmol), 4 h",4.69
